Experimental data of several laboratories.
Each line is one published result; not all experiments were run side by side.

CC[C@H](C)[C@H](NC(=O)[C@H](Cc1ccccc1)NC(=O)[C@H](CCC(=O)O)NC(=O)[C@H](CCCCNC(=O)COCCOCCNC(=O)COCCOCCNC(=O)CC[C@H](NC(=O)CCCCCCCCCCCCCCCCC(=O)O)C(=O)O)NC(=O)[C@H](C)NC(=O)[C@H](C)NC(=O)[C@H](CCC(N)=O)NC(=O)CNC(=O)[C@H](CCC(=O)O)NC(=O)[C@H](CC(C)C)NC(=O)[C@H](Cc1ccc(O)cc1)NC(=O)[C@H](CO)NC(=O)[C@H](CO)NC(=O)[C@@H](NC(=O)[C@H](CC(=O)O)NC(=O)[C@H](CO)NC(=O)[C@@H](NC(=O)[C@H](Cc1ccccc1)NC(=O)[C@@H](NC(=O)CNC(=O)[C@H](CCC(=O)O)NC(=O)C(C)(C)NC(=O)[C@@H](N)Cc1cnc[nH]1)[C@@H](C)O)[C@@H](C)O)C(C)C)C(=O)N[C@@H](C)C(=O)N[C@@H](Cc1c[nH]c2ccccc12)C(=O)N[C@@H](CC(C)C)C(=O)N[C@H](C(=O)N[C@@H](CCCNC(=N)N)C(=O)NCC(=O)N[C@@H](CCCNC(=N)N)C(=O)NCC(=O)O)C(C)C  subjects with adverse events (Japanese subjects; 1.0 mg, metabolism and nutrition disorders): 37.5%
O=C(Nc1cnccc1Cl)N1CCN(Cc2ccc3c(c2)OC(F)(F)O3)CC1  subjects with adverse events (multiple ascending dose; young men; 10 mg, at least 1 treatment-emergent event): 100%
C=CC(=O)NC1CCN(c2ncc3ncnc(Nc4ccc(Oc5ccc6c(c5)ncn6C)c(C)c4)c3n2)CC1  subjects with adverse events (healthy male volunteers; oral, 60 mg, 2 weeks): 88%
Cn1cc(Nc2nc(N)nc(-c3cccc(-n4ccc5cc(C6CC6)cc(F)c5c4=O)c3CO)n2)cn1  subjects with nausea (healthy subjects; oral, 300 mg tablet, fed high-fat breakfast): 1%
O=C(O)CCC(=O)O.[2H]C([2H])([2H])Oc1cc(C)c2[nH]ccc2c1CN1CC[C@@H](C2CC2)C[C@H]1c1ccc(C(=O)O)cc1  subjects with any TEAE (healthy Chinese subjects; 100 mg, single ascending dose): 33.3%
CC(C)n1c(Nc2cccnc2)nc2cnc(Nc3ccc(N4CCN(C)CC4)cc3)nc21  subjects with adverse event (item: hemoglobin increased; healthy male subjects; oral, 100 mg, study, with: gemfibrozil): 7.1%
Cc1c(Cl)c(C)[n+]([O-])c(Cl)c1-c1noc(-c2cc(O)c(O)c([N+](=O)[O-])c2)n1  subjects with any serious TEAE (healthy Caucasian subjects; oral, 25 mg): 0%
CC[C@H](C)[C@H](NC(=O)[C@H](Cc1ccccc1)NC(=O)[C@H](CCC(=O)O)NC(=O)[C@H](CCCCNC(=O)COCCOCCNC(=O)COCCOCCNC(=O)CC[C@H](NC(=O)CCCCCCCCCCCCCCCCC(=O)O)C(=O)O)NC(=O)[C@H](C)NC(=O)[C@H](C)NC(=O)[C@H](CCC(N)=O)NC(=O)CNC(=O)[C@H](CCC(=O)O)NC(=O)[C@H](CC(C)C)NC(=O)[C@H](Cc1ccc(O)cc1)NC(=O)[C@H](CO)NC(=O)[C@H](CO)NC(=O)[C@@H](NC(=O)[C@H](CC(=O)O)NC(=O)[C@H](CO)NC(=O)[C@@H](NC(=O)[C@H](Cc1ccccc1)NC(=O)[C@@H](NC(=O)CNC(=O)[C@H](CCC(=O)O)NC(=O)C(C)(C)NC(=O)[C@@H](N)Cc1cnc[nH]1)[C@@H](C)O)[C@@H](C)O)C(C)C)C(=O)N[C@@H](C)C(=O)N[C@@H](Cc1c[nH]c2ccccc12)C(=O)N[C@@H](CC(C)C)C(=O)N[C@H](C(=O)N[C@@H](CCCNC(=N)N)C(=O)NCC(=O)N[C@@H](CCCNC(=N)N)C(=O)NCC(=O)O)C(C)C  subjects with upper abdominal pain (type 2 diabetes patients; dose not given): 13.3%
CC(C)c1nc(N(C)S(C)(=O)=O)nc(-c2ccc(F)cc2)c1/C=C/[C@@H](O)C[C@@H](O)CC(=O)O  subjects with adverse event (item: thirst; healthy men; oral, dose not given, 8 days, treatment-emergent, crossover trial): 4.5%
C[C@H]1CNCCCN1S(=O)(=O)c1cccc2cncc(F)c12  subjects with eye irritation (healthy adult men; ocular, 1 drop per eye twice daily, 8 days, adverse drug reaction): 0%
Cc1nc2ccc(F)cc2n1-c1nc(N)c(F)c(Nc2ccc(C(F)(F)F)cc2)n1  subjects with neutropenia (leiomyosarcoma patients; 300 mg, with: dacarbazine 1000 mg/m2): 47.6%
COc1c(N2C[C@@H]3CCCN[C@@H]3C2)c(F)cc2c(=O)c(C(=O)O)cn(C3CC3)c12  subjects with any adverse event (healthy volunteers; 400 mg): 48%
CC#CC(=O)N[C@H]1CCCN(c2c(F)cc(C(N)=O)c3[nH]c(C)c(C)c23)C1  subjects with adverse events (healthy volunteers; oral, 0.3 mg once daily, 14 days): 33.3%
C[C@H]1O[C@@H](O[C@H]2[C@@H](O)C[C@H](O[C@H]3[C@@H](O)C[C@H](O[C@H]4CC[C@@]5(C)[C@H](CC[C@@H]6[C@@H]5C[C@@H](O)[C@]5(C)[C@@H](C7=CC(=O)OC7)CC[C@]65O)C4)O[C@@H]3C)O[C@@H]2C)C[C@H](O)[C@@H]1O  subjects with adverse event (item: oropharyngeal pain; healthy men; oral, dose not given, 8 days, treatment-emergent, crossover trial): 0%
NCCONC(=O)[C@@H]1CC[C@@H]2CN1C(=O)N2OS(=O)(=O)O  subjects with serious adverse events (healthy Chinese male subjects; intravenous, 1 g): 0%
